Measurements of several laboratories.
Each numbered part is a random draw from the data of one study; scales do not carry over between parts.
UniProt Q9H3Y6, sequence (whole entry, looked up): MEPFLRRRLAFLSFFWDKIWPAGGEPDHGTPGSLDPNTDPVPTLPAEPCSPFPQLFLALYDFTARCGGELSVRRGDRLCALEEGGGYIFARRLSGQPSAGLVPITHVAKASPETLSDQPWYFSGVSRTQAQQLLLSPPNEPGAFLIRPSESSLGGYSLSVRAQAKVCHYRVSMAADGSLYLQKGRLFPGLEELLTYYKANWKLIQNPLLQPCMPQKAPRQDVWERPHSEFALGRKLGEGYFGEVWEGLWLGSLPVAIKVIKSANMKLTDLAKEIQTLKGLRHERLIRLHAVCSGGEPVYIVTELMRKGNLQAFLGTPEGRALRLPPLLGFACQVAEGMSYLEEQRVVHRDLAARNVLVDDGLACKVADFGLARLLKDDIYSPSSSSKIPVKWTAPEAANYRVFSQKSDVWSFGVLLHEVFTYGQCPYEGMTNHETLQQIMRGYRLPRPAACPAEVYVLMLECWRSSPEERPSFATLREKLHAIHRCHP
UniProt Q9UEE5, sequence (whole entry, looked up): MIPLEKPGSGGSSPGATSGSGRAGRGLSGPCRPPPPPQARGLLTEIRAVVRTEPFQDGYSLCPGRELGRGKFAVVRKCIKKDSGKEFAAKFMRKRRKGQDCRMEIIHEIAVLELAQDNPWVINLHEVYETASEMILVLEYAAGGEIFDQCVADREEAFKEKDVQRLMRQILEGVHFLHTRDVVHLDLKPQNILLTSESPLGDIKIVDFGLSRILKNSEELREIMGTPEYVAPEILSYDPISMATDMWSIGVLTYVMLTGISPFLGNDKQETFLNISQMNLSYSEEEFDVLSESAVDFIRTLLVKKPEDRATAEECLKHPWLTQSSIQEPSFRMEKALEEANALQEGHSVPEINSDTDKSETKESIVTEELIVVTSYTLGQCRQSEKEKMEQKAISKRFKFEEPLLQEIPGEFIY
UniProt Q96PF2, sequence (whole entry, looked up): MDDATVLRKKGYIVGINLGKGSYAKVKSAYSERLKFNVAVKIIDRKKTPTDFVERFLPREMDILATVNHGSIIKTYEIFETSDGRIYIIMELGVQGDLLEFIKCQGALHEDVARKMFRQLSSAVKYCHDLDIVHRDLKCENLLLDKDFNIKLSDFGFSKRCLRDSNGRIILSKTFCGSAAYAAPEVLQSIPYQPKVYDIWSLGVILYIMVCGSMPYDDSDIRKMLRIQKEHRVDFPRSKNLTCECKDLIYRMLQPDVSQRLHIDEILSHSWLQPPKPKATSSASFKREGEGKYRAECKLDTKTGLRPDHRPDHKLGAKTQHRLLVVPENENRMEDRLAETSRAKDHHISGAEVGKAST
UniProt Q9UKR3, sequence (whole entry, looked up): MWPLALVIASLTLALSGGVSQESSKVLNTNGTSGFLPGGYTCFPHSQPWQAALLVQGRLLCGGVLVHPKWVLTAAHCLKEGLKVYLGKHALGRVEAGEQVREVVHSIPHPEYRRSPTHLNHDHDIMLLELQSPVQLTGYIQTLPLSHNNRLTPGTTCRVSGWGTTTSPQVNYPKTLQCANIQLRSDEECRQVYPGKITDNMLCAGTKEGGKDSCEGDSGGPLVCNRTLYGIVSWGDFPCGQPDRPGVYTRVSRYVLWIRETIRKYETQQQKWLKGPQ
UniProt Q9BYP7, sequence (whole entry, looked up): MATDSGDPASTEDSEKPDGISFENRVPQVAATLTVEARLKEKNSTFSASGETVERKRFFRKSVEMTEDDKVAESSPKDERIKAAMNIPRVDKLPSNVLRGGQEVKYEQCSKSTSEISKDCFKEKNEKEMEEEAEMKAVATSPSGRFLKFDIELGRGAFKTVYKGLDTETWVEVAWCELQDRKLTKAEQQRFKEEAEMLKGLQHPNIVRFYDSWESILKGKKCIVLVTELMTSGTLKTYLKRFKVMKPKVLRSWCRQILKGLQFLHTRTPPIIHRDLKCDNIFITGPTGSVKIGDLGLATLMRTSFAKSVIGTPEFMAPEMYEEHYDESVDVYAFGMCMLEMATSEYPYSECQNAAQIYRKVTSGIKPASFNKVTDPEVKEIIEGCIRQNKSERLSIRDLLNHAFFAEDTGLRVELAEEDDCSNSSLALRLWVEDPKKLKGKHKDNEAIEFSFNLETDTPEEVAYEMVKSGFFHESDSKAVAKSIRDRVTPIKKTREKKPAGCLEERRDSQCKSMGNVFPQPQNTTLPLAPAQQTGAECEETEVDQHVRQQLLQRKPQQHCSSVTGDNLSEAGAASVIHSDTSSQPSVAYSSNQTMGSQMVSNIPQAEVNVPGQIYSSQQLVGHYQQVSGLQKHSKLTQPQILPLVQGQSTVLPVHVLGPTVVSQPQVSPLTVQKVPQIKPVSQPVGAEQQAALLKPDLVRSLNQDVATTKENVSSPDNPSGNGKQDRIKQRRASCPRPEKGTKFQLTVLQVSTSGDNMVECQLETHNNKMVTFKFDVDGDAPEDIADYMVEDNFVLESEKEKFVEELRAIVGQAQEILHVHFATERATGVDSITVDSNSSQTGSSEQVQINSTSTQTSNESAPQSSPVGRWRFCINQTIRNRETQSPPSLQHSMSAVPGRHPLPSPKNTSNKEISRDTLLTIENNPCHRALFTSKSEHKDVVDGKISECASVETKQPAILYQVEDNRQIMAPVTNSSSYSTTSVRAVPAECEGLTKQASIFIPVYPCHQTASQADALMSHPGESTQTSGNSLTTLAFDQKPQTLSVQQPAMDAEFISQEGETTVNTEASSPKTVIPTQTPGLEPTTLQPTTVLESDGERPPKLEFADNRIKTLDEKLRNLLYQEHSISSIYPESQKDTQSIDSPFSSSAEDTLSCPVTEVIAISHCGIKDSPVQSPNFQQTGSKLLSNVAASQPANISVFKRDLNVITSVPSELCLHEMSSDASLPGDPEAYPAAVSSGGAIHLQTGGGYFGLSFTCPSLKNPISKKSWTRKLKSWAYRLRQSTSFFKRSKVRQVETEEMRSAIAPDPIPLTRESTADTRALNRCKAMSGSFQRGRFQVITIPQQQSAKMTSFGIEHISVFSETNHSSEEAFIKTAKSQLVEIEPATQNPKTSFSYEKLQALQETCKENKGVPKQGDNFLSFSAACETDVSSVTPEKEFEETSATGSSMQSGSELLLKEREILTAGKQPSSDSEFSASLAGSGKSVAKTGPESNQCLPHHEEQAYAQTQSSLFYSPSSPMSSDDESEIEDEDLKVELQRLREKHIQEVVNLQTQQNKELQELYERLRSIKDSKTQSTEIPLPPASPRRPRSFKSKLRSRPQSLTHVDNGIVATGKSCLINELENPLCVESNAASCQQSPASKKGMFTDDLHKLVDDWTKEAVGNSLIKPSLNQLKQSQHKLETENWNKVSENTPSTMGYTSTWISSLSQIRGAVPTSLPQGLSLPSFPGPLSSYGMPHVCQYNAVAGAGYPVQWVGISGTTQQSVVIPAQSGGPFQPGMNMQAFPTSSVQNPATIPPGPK
UniProt P00742, sequence (whole entry, looked up): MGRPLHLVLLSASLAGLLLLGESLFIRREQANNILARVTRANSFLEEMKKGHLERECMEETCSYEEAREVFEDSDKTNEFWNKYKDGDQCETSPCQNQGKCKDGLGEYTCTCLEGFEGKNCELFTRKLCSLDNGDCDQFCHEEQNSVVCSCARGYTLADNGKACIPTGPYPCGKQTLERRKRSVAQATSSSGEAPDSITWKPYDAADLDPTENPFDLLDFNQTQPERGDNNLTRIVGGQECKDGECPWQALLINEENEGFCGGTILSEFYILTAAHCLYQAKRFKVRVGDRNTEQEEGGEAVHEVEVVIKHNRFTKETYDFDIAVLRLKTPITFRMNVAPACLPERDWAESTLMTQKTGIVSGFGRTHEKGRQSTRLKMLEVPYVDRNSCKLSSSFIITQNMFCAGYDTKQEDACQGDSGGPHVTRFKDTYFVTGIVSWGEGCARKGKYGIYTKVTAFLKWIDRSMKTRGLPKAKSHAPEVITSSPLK
UniProt Q00534, sequence (whole entry, looked up): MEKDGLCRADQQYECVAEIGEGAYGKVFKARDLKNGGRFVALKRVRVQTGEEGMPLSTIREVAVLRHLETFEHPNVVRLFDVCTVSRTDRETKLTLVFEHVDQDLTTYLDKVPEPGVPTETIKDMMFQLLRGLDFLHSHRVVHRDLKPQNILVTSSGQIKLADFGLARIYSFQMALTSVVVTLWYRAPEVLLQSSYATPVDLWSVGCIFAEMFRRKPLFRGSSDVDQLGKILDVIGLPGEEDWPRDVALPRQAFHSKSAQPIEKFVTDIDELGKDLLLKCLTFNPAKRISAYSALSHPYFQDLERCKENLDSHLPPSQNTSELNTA
UniProt Q9NRR2, sequence (whole entry, looked up): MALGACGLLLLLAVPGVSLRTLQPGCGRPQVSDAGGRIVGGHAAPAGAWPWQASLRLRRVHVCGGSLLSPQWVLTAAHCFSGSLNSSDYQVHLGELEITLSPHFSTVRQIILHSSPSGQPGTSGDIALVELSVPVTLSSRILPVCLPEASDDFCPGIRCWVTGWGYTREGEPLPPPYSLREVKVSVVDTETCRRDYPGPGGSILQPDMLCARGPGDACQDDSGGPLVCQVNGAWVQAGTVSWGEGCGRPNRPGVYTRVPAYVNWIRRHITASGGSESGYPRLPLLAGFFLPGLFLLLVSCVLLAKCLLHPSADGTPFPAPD

Study 1
Compound: CCn1cnc2c(Nc3cccc(Cl)c3)nc(N[C@H]3CCCC[C@H]3N)nc21
Effect on: enzyme activity
Action: inhibitor
Concentration: 0.5 µM
Baseline: control
It gave 110% for remaining activity (CAMK2B (Homo sapiens, UniProt Q13554)).
PDPK1 (Homo sapiens, UniProt O15530) — remaining activity: 94.8%.
The remaining activity was 109% (TSSK2 (Homo sapiens, UniProt Q96PF2)).
It gave 87.8% for remaining activity (RPS6KA5 (Homo sapiens, UniProt O75582)).
It gave 92% for remaining activity (WNK3 (Homo sapiens, UniProt Q9BYP7)).
It gave 98.7% for remaining activity (AXL (Homo sapiens, UniProt P30530)).
STK17A (Homo sapiens, UniProt Q9UEE5) — remaining activity: 98.4%.
The remaining activity was 78.5% (EPHA4 (Homo sapiens, UniProt P54764)).
It gave 85.9% for remaining activity (SRMS (Homo sapiens, UniProt Q9H3Y6)).
Cyclin-dependent kinase 4, with cyclin D3 (CDK4, Homo sapiens, UniProt P11802) — remaining activity: 71.5%.
For DYRK3 (Homo sapiens, UniProt O43781): remaining activity read 83.7%.
It gave 76.9% for remaining activity (Cyclin-dependent kinase 6, with cyclin D3 (CDK6, Homo sapiens, UniProt Q00534)).

Study 2
Cell line: HEK-293T/ACE2
Technique: Hoechst nuclei count
Concentration: concentration not given
Time: 16 (unit not given)
Baseline: vehicle
The viability of `CNNCc1ccc(C(=O)NC(C)C)cc1` is reported as 98%.
`C[C@]12CC[C@H]3[C@@H](CCC4=CC(=O)CC[C@@H]43)[C@@H]1CC[C@@H]2O` gave a viability of 106%.
With `Nc1ccn(C[C@@H](CO)OCP(=O)(O)O)c(=O)n1` the viability was 107%.
`C=C1CC[C@@]2(O)[C@H]3Cc4ccc(O)c5c4[C@@]2(CCN3CC2CC2)[C@H]1O5` has a viability of 99.6%.
For `COc1c(C)c2c(c(O)c1C/C=C(\C)CCC(=O)O)C(=O)OC2`, the viability was 93%.
The viability of `COc1cc([C@@H]2c3cc4c(cc3[C@@H](O[C@@H]3O[C@@H]5CO[C@@H](C)O[C@H]5[C@H](O)[C@H]3O)[C@H]3COC(=O)[C@H]23)OCO4)cc(OC)c1O` is reported as 80.1%.
`CC(=O)OCC(=O)[C@@]1(O)CC[C@H]2[C@@H]3CCC4=CC(=O)CC[C@]4(C)[C@@]3(F)[C@@H](O)C[C@@]21C` has a viability of 107%.
For `O=C(Nc1c(Cl)cncc1Cl)c1ccc(OC(F)F)c(OCC2CC2)c1`, the viability was 97.7%.
`N=C(N)c1ccc(OCCCCCOc2ccc(C(=N)N)cc2)cc1` gave a viability of 102%.
`CCCCCCCCCCCCCCCC[N+](C)(C)CCN(Cc1ccc(OC)cc1)c1ncccn1` gave a viability of 97.8%.

Study 3
SMILES: N=C(N)c1ccc2cc(OC(=O)c3ccc(N=C(N)N)cc3)ccc2c1
F10 (Homo sapiens, UniProt P00742) — IC50: 1110 nM.
The IC50 was 275 nM (F7 (Homo sapiens, UniProt P08709)).
It gave 302 nM for IC50 (Kallikrein-13 (Homo sapiens, UniProt Q9UKR3)).
Prothrombin (F2, Homo sapiens, UniProt P00734) — IC50: 303 nM.
Kallikrein-12 (Homo sapiens, UniProt Q9UKR0) — IC50: 359 nM.
It gave under 0.508 nM for IC50 (Tryptase gamma (Homo sapiens, UniProt Q9NRR2)).
The IC50 was under 0.508 nM (PLAU (Homo sapiens, UniProt P00749)).

Further values, each from its own experiment
Effect on: cell-free assay
Technique: competition with immobilised ligand
Concentration: 1 µM
CDPK1: Calcium-dependent protein kinase 1 (CDPK1, Plasmodium falciparum, UniProt P62344)
UniProt P62344, sequence (whole entry, looked up): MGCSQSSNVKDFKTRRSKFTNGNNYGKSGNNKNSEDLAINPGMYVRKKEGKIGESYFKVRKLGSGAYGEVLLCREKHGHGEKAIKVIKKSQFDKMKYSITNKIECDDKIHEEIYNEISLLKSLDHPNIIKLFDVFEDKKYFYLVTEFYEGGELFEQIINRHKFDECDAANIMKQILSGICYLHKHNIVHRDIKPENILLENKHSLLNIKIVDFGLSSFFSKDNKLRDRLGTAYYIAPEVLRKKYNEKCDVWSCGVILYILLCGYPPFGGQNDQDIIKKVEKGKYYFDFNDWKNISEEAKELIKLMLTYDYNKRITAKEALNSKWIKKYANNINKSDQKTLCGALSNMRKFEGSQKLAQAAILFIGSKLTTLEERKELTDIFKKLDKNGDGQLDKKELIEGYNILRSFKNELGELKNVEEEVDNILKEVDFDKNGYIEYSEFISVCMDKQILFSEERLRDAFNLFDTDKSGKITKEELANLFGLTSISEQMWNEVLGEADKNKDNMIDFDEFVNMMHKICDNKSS
With `CCCCN(CCCC)C(=O)CN1C[C@@H](c2cc(OC)c3c(c2)OCO3)[C@H](C(=O)O)[C@H]1CC(C)(C)CCC` the remaining binding was 95.9% (PAK1 (Homo sapiens, UniProt Q13153)).
`CO[C@@H](C)c1c(Nc2ccc([C@@H](N(C)C(=O)C3CCS(=O)(=O)CC3)C(F)(F)F)cc2)cnc2cc(Cl)nn12` gave a remaining binding of 78% (CDPK1).
The remaining binding of `CC1=C(C#N)[C@@H](c2ccc3[nH]nc(C)c3c2)C(C#N)=C(c2ccc(Cl)cc2)N1` is reported as 100% (CDPK1).
The remaining binding of `CCOCCn1cc(C(=O)Nc2ccc(-n3nc(-c4cccnc4)cc3C(F)(F)F)cn2)ccc1=O` is reported as 71% (CDPK1).

Repeated from above (study 1):
The remaining activity was 109% (TSSK2 (Homo sapiens, UniProt Q96PF2)).
Cyclin-dependent kinase 4, with cyclin D3 (CDK4, Homo sapiens, UniProt P11802) — remaining activity: 71.5%.
It gave 98.7% for remaining activity (AXL (Homo sapiens, UniProt P30530)).
It gave 87.8% for remaining activity (RPS6KA5 (Homo sapiens, UniProt O75582)).
It gave 76.9% for remaining activity (Cyclin-dependent kinase 6, with cyclin D3 (CDK6, Homo sapiens, UniProt Q00534)).
